Experimental data pooled from the literature.
Every numbered part comes from another study and shows a few of its results, in no order.
Chain of UniProt Q16513 (whole entry, looked up): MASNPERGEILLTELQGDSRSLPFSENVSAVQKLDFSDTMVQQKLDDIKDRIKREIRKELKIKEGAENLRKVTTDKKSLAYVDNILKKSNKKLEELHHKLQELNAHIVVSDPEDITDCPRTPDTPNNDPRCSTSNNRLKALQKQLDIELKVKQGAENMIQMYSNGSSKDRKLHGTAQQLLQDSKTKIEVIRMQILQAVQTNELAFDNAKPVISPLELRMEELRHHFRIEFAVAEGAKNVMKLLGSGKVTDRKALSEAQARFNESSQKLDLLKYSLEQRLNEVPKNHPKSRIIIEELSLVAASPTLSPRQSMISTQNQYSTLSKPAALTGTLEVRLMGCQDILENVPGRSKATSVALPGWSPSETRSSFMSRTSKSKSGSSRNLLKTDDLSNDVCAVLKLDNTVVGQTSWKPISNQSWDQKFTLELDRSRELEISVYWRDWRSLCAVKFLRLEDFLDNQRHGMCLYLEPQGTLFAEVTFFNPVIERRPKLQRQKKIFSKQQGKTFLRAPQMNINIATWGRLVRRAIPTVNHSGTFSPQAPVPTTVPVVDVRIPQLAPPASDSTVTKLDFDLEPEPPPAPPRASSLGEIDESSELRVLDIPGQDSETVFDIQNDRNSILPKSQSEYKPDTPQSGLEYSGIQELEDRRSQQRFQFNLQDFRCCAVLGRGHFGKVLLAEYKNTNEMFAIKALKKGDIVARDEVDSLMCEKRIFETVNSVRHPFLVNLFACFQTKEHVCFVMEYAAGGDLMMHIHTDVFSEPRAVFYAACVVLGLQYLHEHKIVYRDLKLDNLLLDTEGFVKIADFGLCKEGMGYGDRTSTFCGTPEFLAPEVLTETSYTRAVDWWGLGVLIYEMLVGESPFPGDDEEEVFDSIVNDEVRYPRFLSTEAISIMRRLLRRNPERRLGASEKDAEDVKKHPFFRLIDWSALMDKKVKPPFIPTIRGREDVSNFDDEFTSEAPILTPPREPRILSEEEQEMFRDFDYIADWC

Study 1 — method: RNA Bind-n-Seq; molecule type: RNA; medium: in vitro; concentration: not given; reference: input RNA pool; reading: higher = stronger binding
Target: RING finger protein unkempt homolog, zinc fingers 1-6, GST-SBP tag (UNK, Homo sapiens, UniProt Q9C0B0, residues 30-357)
Setting: RNA with constant flanks, human and mouse sites, ends assumed
Shared flanks, not repeated: GGGAGUUCUACAGUCCGACGAUC … CAACAGAGGAUUGAGCAUCA
Target sequence (chain): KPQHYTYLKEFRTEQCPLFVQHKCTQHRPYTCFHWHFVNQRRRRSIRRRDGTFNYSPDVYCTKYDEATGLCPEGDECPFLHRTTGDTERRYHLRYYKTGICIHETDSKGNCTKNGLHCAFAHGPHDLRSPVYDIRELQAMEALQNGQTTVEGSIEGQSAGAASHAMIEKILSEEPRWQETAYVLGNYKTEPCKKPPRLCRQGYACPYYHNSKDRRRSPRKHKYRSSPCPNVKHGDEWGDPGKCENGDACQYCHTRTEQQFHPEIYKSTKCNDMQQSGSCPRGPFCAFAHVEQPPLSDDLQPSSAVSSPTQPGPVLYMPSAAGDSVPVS
| Sequence | bound/input enrichment [ratio] |
| --- | --- |
| GCGGCUUUUUGCCUUCUCUCUACUCUGGGGGGAUAUUUGGUCACCUCGUUCUUGUUGCUUAAAUACCCAGCGUUGCUGCACCAGAGAAAGAAACAGCGAUUCCUCAGUAGGCACAUCUCU | 0.212 |
| UGAAACAGUCCUCUGAGACAUUAACUAUAAGACUGUGUUCUGUUUAUAAGUAUUUAUUUCUAAUGCCUCCAGGUAGGGCUGUAAGGUUCAUGUGGAGCUACCUUCUCCUAUCCCCCCUUC | 0.572 |
| GACUUUAUCAUAGUAACUAUUAAAGCAAAGUUAUAAGCACAACUUCAAAGGACUUCAUCCUUAUCAGCUCUCUUAACUUGUAUCUUCAUUAAGGAACUCUGCAAGGUUAAGUUUACUUUU | 0.709 |
| ACUGGUGUGGUCGUUGUUGGAAUACAGGGAGAGCCUGAGCGUGGACCCCGCUUUCCCAGAACUAGUAGUGAGGCUGUGCUCCGUGAAAAUGCACCACCAGGGACUCCAGUUAUCUCCCCA | 0.427 |
| CCCCUUCAAGAGAUUCUCGUUUUUCAAAGAUGUGUAUAUCCUUUUAUCACUCACAAGUGGUAGCAUGUCAGAUGCUUCCCCCACCCCCACUGCUUUAUGUAAUAUGUCAUGGGCAUUUCG | 0.375 |
| ACUCCAAGACUGUGUUCGGGAGUCCUUGGAACUGUGGUCCAUGGUAAAGUUUUACAGGAGUUAGGACCUGGAAAUGUACAGAAAGAAGUCUCAUCUUCCUUUGACCACGUUAUCAAGGAG | 0.0896 |
| UUCUUGAAGGCUAUUGGGUAUCUUAUUCCUCUUAUGGAUGCAGAAUAUGCCAACUACUAUACUAGAGAAGUGAUGUUAAUCCUCAUUCGAGAAUUUCAGUCUCCUGAUGAAGAAAUGAAG | 0.948 |
| AGGAACUGCAGAAUGGUCCUGGACUGGCUCCCAGUCUGUACCUUUUUCUCAUCUUUCCUGGAGAUGGGAGCAGCAUCCUAAGCCCUUCCGUGGCGACAUGUAAUACAUUUGAGGGAUGGA | 0.26 |

Study 2 — method: RNA Bind-n-Seq; molecule type: RNA; medium: in vitro; concentration: 1 µM; setting: whole 134-nt RNA, ends assumed; together with: 150 mM KCl; reference: input library; reading: higher = stronger binding
Target: Ras GTPase-activating protein-binding protein 1, C-terminal RGG region (G3BP1, Homo sapiens, UniProt Q13283)
Chain of UniProt Q13283 (whole entry, looked up): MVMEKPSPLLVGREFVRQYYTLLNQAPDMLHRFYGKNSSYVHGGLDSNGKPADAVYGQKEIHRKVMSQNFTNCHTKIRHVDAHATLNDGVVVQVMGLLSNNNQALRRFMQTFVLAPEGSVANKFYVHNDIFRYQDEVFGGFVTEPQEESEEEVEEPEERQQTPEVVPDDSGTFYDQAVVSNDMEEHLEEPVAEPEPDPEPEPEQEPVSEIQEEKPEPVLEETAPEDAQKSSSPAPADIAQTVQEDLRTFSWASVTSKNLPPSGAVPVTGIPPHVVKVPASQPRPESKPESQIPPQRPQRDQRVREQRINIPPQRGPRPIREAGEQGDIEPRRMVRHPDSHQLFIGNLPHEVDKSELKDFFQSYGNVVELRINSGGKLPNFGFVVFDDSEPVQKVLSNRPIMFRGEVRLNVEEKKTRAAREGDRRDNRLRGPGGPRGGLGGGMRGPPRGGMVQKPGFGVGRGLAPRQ
Shared flanks, not repeated: GGGAGUUCUACAGUCCGACGAUC … UGGAAUUCUCGGGUGUCAAGG
| Sequence | log2 enrichment |
| --- | --- |
| CACAGACAACACGCACCCACACAGACACAGAGGGAAGGGGUUGGGAUGGGCACAGGGUGCACAGCAGGGCGGGGUAGGACCCCAGCCCCU | -0.816 |
| GGCACAGGUGCCCGACCAUACACUGGGAAAGUUGGUGCUGAGGAUGCCGAUGGGAUUGACAUGGCCUACCGGGUGCUGGCUGACCACGCU | -1.31 |
| CUCAAGUCCUGUGCUACACAUCGUAUGUACCGAAUCGGGAGGGUGGGAAAGGGAAAGUAUUAUGUUACGCCGUUCGGAUCUGCACUUCCA | 1.75 |
| ACCAUGCAGGUGGGCAUCUUUGGGAAGUGGGGCAAGGGGGGGAUAGGGAGGGGGGUAACACUUUGGGAACAGGCGGUCCCAGGUCGUUUC | 2.2 |
| UUAGAUGAGUGACCGAGGAGGUGGCGUUCCUUUGAGGAAAAUUGACAGACUUUUCAACUACAUGUAUUCAACUGCACCAAGACCUCGUGU | -1.46 |
| GUCCUGUGCUACACAUCGUAUGUACCGAAUCGGGGAGGGGUUUUUGGGGAAAAAGGGGAAAGUAUUAUGUUACGCCGUUCGGAUCUGCAC | 0.956 |
| UGGGAGGUGGAUUUUGUUUAUUUUUUUAGCUCAUUUCCAGGGGUGGGAAUUUUUUUAUAAUAUGUGUCAUGAAUAAAGUUGUUUUUGAAA | 2.95 |
| AGUCCUGUGCUACACAUCGUAUGUACCGAAUCGGGGCCCGGGGCCCGGGGCCCGGGGAAAGUAUUAUGUUACGCCGUUCGGAUCUGCACU | -1.91 |

Other studies, line by line
| Molecule | target or system | assay | system | conditions | scale | endpoint | value |
| --- | --- | --- | --- | --- | --- | --- | --- |
| DEK (Homo sapiens, UniProt P35659) | ISY1 (Homo sapiens, UniProt Q9ULR0) | cross-linking MS | cell fractions | together with: DSSO | – | cross-linked residues | K111 to K259 |
| Nc1nc(Nc2ccc(S(N)(=O)=O)cc2)nn1C(=O)c1c(F)cccc1F | Serine/threonine-protein kinase N2 (PKN2, Homo sapiens, UniProt Q16513) | enzyme activity, inhibitor | – | 0.5 µM | reference: control | remaining activity | 85.6% |
| IMMT (Homo sapiens, UniProt Q16891) | APOO (Homo sapiens, UniProt Q9BUR5) | cross-linking MS | – | hits only | – | interaction screen | cross-linked |
| ANK3 (Homo sapiens, UniProt Q12955) | PIK3R5 (Homo sapiens, UniProt Q8WYR1) | cross-linking MS | cell fractions | together with: DMTMM | – | cross-linked residues | D2575 to K789 |

Some of these lines once more (study 2):
| Sequence | log2 enrichment |
| --- | --- |
| UGGGAGGUGGAUUUUGUUUAUUUUUUUAGCUCAUUUCCAGGGGUGGGAAUUUUUUUAUAAUAUGUGUCAUGAAUAAAGUUGUUUUUGAAA | 2.95 |
| AGUCCUGUGCUACACAUCGUAUGUACCGAAUCGGGGCCCGGGGCCCGGGGCCCGGGGAAAGUAUUAUGUUACGCCGUUCGGAUCUGCACU | -1.91 |
| CUCAAGUCCUGUGCUACACAUCGUAUGUACCGAAUCGGGAGGGUGGGAAAGGGAAAGUAUUAUGUUACGCCGUUCGGAUCUGCACUUCCA | 1.75 |
